Experimental data from different studies.
Every numbered part comes from another study and shows a few of its results, in no order.

Series 1
Target: RING finger protein unkempt homolog, zinc fingers 1-6, GST-SBP tag (UNK, Homo sapiens, UniProt Q9C0B0, residues 30-357)
Chain of UniProt Q9C0B0 (30-357, looked up): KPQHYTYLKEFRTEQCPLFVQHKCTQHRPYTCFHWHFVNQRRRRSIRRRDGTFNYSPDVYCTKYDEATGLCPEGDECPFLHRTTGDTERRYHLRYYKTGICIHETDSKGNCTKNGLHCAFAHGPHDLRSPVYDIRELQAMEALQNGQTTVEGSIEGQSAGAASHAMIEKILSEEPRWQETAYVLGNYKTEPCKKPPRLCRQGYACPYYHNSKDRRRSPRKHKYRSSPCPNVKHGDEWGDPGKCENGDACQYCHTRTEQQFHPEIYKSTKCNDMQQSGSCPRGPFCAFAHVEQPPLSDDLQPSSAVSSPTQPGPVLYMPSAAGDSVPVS
Method: RNA Bind-n-Seq
Form: RNA
Matrix: in vitro
Concentration: not given
Notes: RNA with constant flanks, human-mouse chimeric sites, ends assumed
Relative to: input RNA pool
Direction: higher = stronger binding
Shared flanks, not repeated: GGGAGUUCUACAGUCCGACGAUC … CAACAGAGGAUUGAGCAUCA
| Sequence | bound/input enrichment [ratio] |
| --- | --- |
| CUUAUGGCUGCAGAAACAGGAAGUGGAAAAACUGGUGCAUUUAGUAUUCCCGUUAUCCAGAUAGUGUAUGAAACUCUGAAAGACCAACAGGAAGGAAAGAAAGGGAAAACAACAAUUAAA | 1.29 |
| UACUACUAUGAUGGUGAUAUUGGCAAUUAUUAUUAUGGACAGGGUCAUCCCAUGAAGCCUCAUAGAAUCCGCAUGACUCAUAACUUGCUGCUAAAUUAUGGUUUAUACCGAAAAAUGGAA | 0.319 |
| UAAGUCCUGUGCCAGCAAUUUAUCCCAAAAGUUUUAAAUUCUGGACCAAUAGUGUUUGUUUCCUGAUUAUUGUAUCCAAUACUUUGCGUACUAUGUGACUCACUCUUACUGAUAAUAAAA | 2.09 |
| GCUCUUGGGAAUGUAAUCAGCGCCUUGGGGGACAAGAGCAAGAGAGCCACCCAUGUCCCUUACAGAGAUUCCAAGCUGACAAGACUCCUACAGGAUUCCCUUGGGGGUAACAGCCAAACC | 0.128 |
| UCGGAUGCUGUGCUGGGUCACUUUUCAUAUCCUGAUCCUUCACAGUGGACAGAUGAAGAACUGGGAAUCCCUCCUGAUGACGAGGACUGACACUGUAAACUCUCUGGACGAGUAGGAGCA | 0.698 |
| GUGCCCUUCUCGCUGCUGCGGAGCCCGAGCUGGGAACCAUUCCGGGACGACUGGUACGCACACAGCCGCCUCUUCGACCAGGCCUUCGGGGUGCCCCGGUUGCCCGAUGAGUGGUCGCAG | 0.101 |

Series 2
Target: Histone acetyltransferase KAT6A, both winged helices, GST fusion (KAT6A, Homo sapiens, UniProt Q92794, residues 1-181)
Method: protein binding microarray
Form: double-stranded DNA, one strand shown
Matrix: in vitro
Concentration: not given
Notes: 8-mer, flanks averaged, mean of 2 arrays, mostly near background
Relative to: not given
Direction: higher = stronger binding
Construct (chain): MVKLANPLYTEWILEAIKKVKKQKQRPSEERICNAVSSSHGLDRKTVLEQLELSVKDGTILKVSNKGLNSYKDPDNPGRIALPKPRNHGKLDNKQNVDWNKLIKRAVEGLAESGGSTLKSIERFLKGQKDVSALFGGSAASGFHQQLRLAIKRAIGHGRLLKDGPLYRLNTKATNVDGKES
| Sequence | E-score |
| --- | --- |
| ATATTTCA | -0.178 |
| ATGAAGTA | 0.00532 |
| CGGTGCCC | 0.137 |
| CGTTCACC | 0.156 |
| ATCCGACG | 0.204 |
| ACTGACGA | -0.109 |

Series 3
Target: Prothrombin, mature alpha-thrombin (F2, Homo sapiens, UniProt P00734)
Method: aptamer microarray, sandwich
Form: DNA with 2'F-ANA
Matrix: in vitro
Concentration: 200 nM
Notes: whole 15-mer aptamer, many near background
With: Cy3 exosite-II aptamer, 400 nM
Direction: higher = stronger binding
Sequence: GGTTGGTGTGGTTGG
| Modification | mean fluorescence intensity |
| --- | --- |
| 2'F-ANA at 2 5 9 11 14 15 | 51.1 a.u. |
| 2'F-ANA at 1 4 6 7 8 10 12 14 | 45.1 a.u. |
| 2'F-ANA at 3 5 7 9 10 12 14 15 | 56.5 a.u. |
| 2'F-ANA at 1 6 9 11 12 14 | 58.6 a.u. |
| 2'F-ANA at 1 2 4 5 8 9 10 11 12 13 14 15 | 52.7 a.u. |
| 2'F-ANA at 2 3 4 5 8 9 | 103 a.u. |
| 2'F-ANA at 3 4 6 8 9 10 11 15 | 206 a.u. |
| 2'F-ANA at 6 8 9 10 11 13 14 | 85.8 a.u. |

Further values, each from its own experiment
| Molecule | target | assay | test system | conditions | scale | quantity | result |
| --- | --- | --- | --- | --- | --- | --- | --- |
| PhoQ, residues 284 288 289 292 302 303 SSTLSG | PhoP, residues 12 14 15 18 19 LQHIR (Escherichia coli, UniProt P23836) | Sort-seq, item: YFP reporter | E. coli | PhoQ-PhoP variant library, with: 10 µM Mg2+ | relative to: high Mg2+ state, higher = stronger signaling | fold induction | 15 |

A few entries again (series 2):
| Sequence | E-score |
| --- | --- |
| ATCCGACG | 0.204 |
| ATATTTCA | -0.178 |
| ATGAAGTA | 0.00532 |
